Results from different studies.
Each line is one published result; not all experiments were run side by side.
Target: Serine/threonine-protein kinase DCLK1 (DCLK1, Homo sapiens, UniProt O15075)

SMILES | observed | action | technique | concentration | reference | quantity | value
COc1cc(Nc2nccc(-c3cnn4nc(OC)ccc34)n2)cc(C(F)(F)F)c1 | binding |  | competition with immobilised ligand | 1 µM |  | remaining binding | 89%
CC(C)=CC1OC(C)(C)C2C=C3C(=O)C(Cl)=CC(O)C3C3C(O)C4OC4C(=O)C132 (stereo not drawn) | cell-free assay |  | competition with immobilised ligand | 10 µM |  | remaining binding | 58%
Nc1ncc2c(n1)-c1c([nH]c3ccc(C4=CCOCC4)cc13)CCC2 | binding |  | competition with immobilised ligand | 1 µM |  | remaining binding | 78%
CN1CCN(Cc2ccc(NC(=O)c3cccc(C#Cc4cnc(N)c5ncccc45)c3)cc2C(F)(F)F)CC1 | cell-free assay |  | competition with immobilised ligand | 0.5 µM |  | remaining binding | 61%
CCN1CCN(Cc2ccc(C(=O)Nc3ccc(C)c(NCc4cnc5[nH]ccc5c4OC)c3)cc2C(F)(F)F)CC1 | binding |  | competition with immobilised ligand | 1 µM |  | remaining binding | 75%
COc1c(Cl)cccc1Nc1c(-c2ccncc2C#C[C@@]2(C)CCCN2C(=O)/C=C/CN(C)C)[nH]c2c1C(=O)NCC2 | binding |  | competition with immobilised ligand | 3 µM |  | remaining binding | 91%
NC(=O)[C@@H](O)C[C@H]1CCc2sc3ncnc(O[C@H]4CC[C@H](N5CCOCC5)CC4)c3c21 | enzyme activity | inhibitor |  | 10 µM |  | inhibition | 14%
Cc1ccc(-c2c(/C=C(\C#N)C(=O)NC(C)C)n(CCCO)c3ncnc(N)c23)cc1 | cell-free assay |  | competition with immobilised ligand | 1 µM |  | remaining binding | 100%
CN1CCN(Cc2ccc(-c3ccc(CO[C@H]4CCC[C@@H]4NC(=O)c4cc(-c5cnn(C)c5)cnc4N)cc3)cc2)CC1 | enzyme activity | inhibitor |  | 0.1 µM |  | inhibition | 9%
Cc1cnc2nc1Nc1cccc(c1)COC/C=C/COCc1cc(ccc1OCCN1CCOCC1)N2 | cell-free assay |  |  | 0.1 µM |  | remaining signal | 95%
O=C(Cc1ccc(OCc2ccccc2)cc1)NC1(C(=O)O)CCN(C(=O)c2ccc(-c3cccc(Cl)c3)cc2)CC1 | enzyme activity | inhibitor |  | 10 µM |  | activity vs control | 109%
C=CC(=O)N1CCc2ccc(-n3c(=O)ccc4cnc5ccc(-c6cnn(C)c6)cc5c43)cc21 |  |  | KINOMEscan | 1 µM | DMSO control | remaining binding | 72%

A few entries again:
SMILES | observed | action | technique | concentration | reference | quantity | value
NC(=O)[C@@H](O)C[C@H]1CCc2sc3ncnc(O[C@H]4CC[C@H](N5CCOCC5)CC4)c3c21 | enzyme activity | inhibitor |  | 10 µM |  | inhibition | 14%
